Measured values gathered from unrelated publications.
A part holds a random share of what one study measured.

Sample 1 — method: RNA Bind-n-Seq; molecule type: RNA; sample: in vitro; tested at: 365 nM; baseline: no-protein control; direction: higher = stronger binding
Target: RNA binding protein fox-1 homolog 2, RRM domain, GST-SBP tag (RBFOX2, Homo sapiens, UniProt O43251-10, residues 100-194)
Notes: natural RNA segment, single round, ends assumed
Construct (chain): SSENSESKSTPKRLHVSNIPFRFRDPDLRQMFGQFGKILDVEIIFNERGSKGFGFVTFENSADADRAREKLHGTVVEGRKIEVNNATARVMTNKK
Oligonucleotide | RBNS enrichment (R)
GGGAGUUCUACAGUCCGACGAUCGUGGAACAUCUGGGAAUUUGAGAAGUAUCUGCAAAGUAUAGAAAAAUCAACAGAUUUGUGGACCCUGGUAAAGAAGUUCAGCCAAGUCUCAGUGAAAAAUGUUAAGAAGUUGGAAUUCUCGGGUGCCAA | 0.346
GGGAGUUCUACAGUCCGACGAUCACUAAAGCUACAUCAGGCCUACUAAGCAGGAGCUGGCCUGUUGCCUACCACCCCUAGUAAGCAGGGUAGGAGCAACAGAUUCAAGAUGAGAGAAGUAUGUGUUUGUUUUUUGGAAUUCUCGGGUGCCAA | 0.416
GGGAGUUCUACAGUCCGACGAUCUGUUUUGAUUGGAAGGCAGAUUAUUUUAUAUUAGUAUUAAAAAUCAAACCCUAUGUUUCUUUCAGAUGAAUCUUCCAAAGUGGAUUAUAUUAAGCAGGUAUUAGAUUUAGUGGAAUUCUCGGGUGCCAA | 0.559
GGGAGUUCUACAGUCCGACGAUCCUAAUUCUAUCACGAAUGUUCUUGUCUGUGUACAGUUUUUAGAACAUUACAAAGGAUUUGUUUGCUUAGCUGUCAACAAAAAGAAAACCUGAGGGAGCAUUCAGCAAGUCUGGAAUUCUCGGGUGCCAA | 0.332
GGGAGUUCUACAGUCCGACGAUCACAGUGCUCCUACUCUAUCCACAUUAAGUAGCACUUUUGUGGUAGAACUGAUUCUUAAGGCAGGCCUGAAAGGCCAUUACUAAUAGAAACACAGCCUUUCCAAUCCUCUGUGGAAUUCUCGGGUGCCAA | 0.331
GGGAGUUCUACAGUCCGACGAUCCCUUCCCACUGACUUACACUCGUCUAUCUAGAAUACAGGUUGUCCAGGCAGCUGGUCACUUACCAGGUGUGGACUUACGUUGCUGGGCUUGCAAAUGAAUUGCUAGUCCCUGGAAUUCUCGGGUGCCAA | 0.315
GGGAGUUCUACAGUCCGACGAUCUUGCUGUCACUGGUCAUAUGGCCAGCAAGUGCAGAGAAACAAGAAACAAAUGUGCCCACCCCACCUUCCACUUAAAGAAAAAAAAUCUCAAAAUAAAUUUCUGAAUUAUGUGGAAUUCUCGGGUGCCAA | 0.275
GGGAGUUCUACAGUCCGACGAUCCAAGCACUUUUCCAUCCCUGGCGGGAUGGGUGGAUAGAACAUUUUUUUUAUUCAGCAUACAUUUUCUUUAUGUAGGAGCAGGAAUCGAACAAGCCUCUGUGAAUAUUUUCUGGAAUUCUCGGGUGCCAA | 0.639

Sample 2 — method: protein binding microarray; molecule type: double-stranded DNA, one strand shown; sample: in vitro; tested at: not given; baseline: not given; direction: higher = stronger binding
Target: Histone acetyltransferase KAT6A, winged helix 1, GST fusion (KAT6A, Homo sapiens, UniProt Q92794, residues 1-85)
Notes: 8-mer, flanks averaged, mean of 2 arrays, mostly near background
Residues (chain): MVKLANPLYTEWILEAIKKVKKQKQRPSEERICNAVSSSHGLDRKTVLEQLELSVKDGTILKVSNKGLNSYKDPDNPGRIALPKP
Oligonucleotide | E-score
CGGCTTTA | 0.267
ACCCATAC | -0.189
TCCATGGA | -0.11
GTGACACA | 0.0195
AAAAGTCT | -0.218
CCGCATGC | 0.233
GCAATGGA | -0.109
CCGACCAA | -0.0391
GCCGATCC | 0.327
GAAAGAAA | -0.105
ACACCTTA | -0.127
TCTGACCA | -0.103
GAGGCAAC | -0.0752
ATAACCAA | -0.231
GTAAAATA | -0.164
AGTTACAC | -0.0475
ATCCTCTA | -0.259
AAGAACGT | -0.0649
ATGACCCC | -0.0342
ACTTCTTG | -0.126
TCCGAACA | 0.0487
CGAGCTGA | -0.119
CGATGTGC | 0.112
GCACGTCC | 0.0371
ACGAGGAT | -0.186

Sample 3 — method: protein-binding microarray; molecule type: double-stranded DNA, one strand shown; sample: in vitro; tested at: 940 nM top; notes: 60-bp whole probe; together with: salmon DNA 0.4 mg/ml; baseline: random background probes; direction: higher = stronger binding; shared flanks, not repeated: GCCTAGCAC … GTCTTGATTCGCTTGACGCTGCTG
Target: Interferon regulatory factor 5, full length, phosphomimetic (IRF5, Homo sapiens, UniProt Q13568-2, residues 1-514, S451D/S453D/S456D/S462D)
Oligonucleotide | fitted relative affinity [z-score]
GACGAATTGGGGACTGGAGACGTGCTA | -0.0896
TCACTTTACTCACTCGGACTGTGCTAG | 1.06
TTGGGACTGGGTCTCGGTTAGTGCTAG | 1.18
AACGGTATCGGGTTTCGGGACGTGCTA | 5.48
GACGAACTGATTTTCGAGACGTGCTAG | 0.302
GACGATTTCGGGACTGCAGACGTGCTA | 0.0434
GACGGTTTGGGTCTCGGGACGTGCTAG | 0.654
GACGGTATCGGAACTGGGGACGTGCTA | 3.48
CATCATTGCTTTCTCTTTCAGTGCTAG | 2.37
TTAGATTTCGGGTATGGATTAGTGCTA | 1.24
GACGATTCCAGTTTCCAGACGTGCTAG | 0.889
TTAGGTCTCGGTTCCGGTTAGTGCTAG | 5.68
TCAAGAATAATTTTTTAGACTGTGCTA | -0.263
TTAGGACTGCGTTTCCTTTAGTGCTAG | -0.282
TTAGGACTGGGTCTCAGTTAGTGCTAG | -0.127
ACCATTTTGGTTTTCCTTATGTGCTAG | 1.15
GACGGTTTCGGGACTGAGGACGTGCTA | 7.2
GACGGTTGCCTTATCCTGACGTGCTAG | -0.0422
GACGATTTAGGGACTGGAGACGTGCTA | -0.553

Sample 4 — method: Spec-seq; molecule type: double-stranded DNA, one strand shown; sample: in vitro; tested at: not given; notes: whole probe, mean of replicates; baseline: not given; direction: lower = stronger binding; shared flanks, not repeated: GAGTCGTCTCGTCAGCAC … CCGTAGAGCACTCAGGTC
Target: POU, POU domain (Salpingoeca helianthica)
Target sequence (chain): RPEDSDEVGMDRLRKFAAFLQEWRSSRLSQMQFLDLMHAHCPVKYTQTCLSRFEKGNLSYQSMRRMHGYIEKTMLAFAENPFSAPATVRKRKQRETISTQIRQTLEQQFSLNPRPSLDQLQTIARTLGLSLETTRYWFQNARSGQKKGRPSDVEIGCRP
Oligonucleotide | relative binding energy
ATGCAAGG | 1.36 ln ratio
ATGCCTAG | 1.37 ln ratio
GAATTAAT | -0.952 ln ratio
ATGCAATG | 1.12 ln ratio
ATGCGGTC | 1.42 ln ratio
ATGCGGCC | 1.56 ln ratio
ATTGACAT | 1.03 ln ratio
ATGCTAAT | 0.674 ln ratio
ATGCACAT | 1.34 ln ratio
ATGCGCTC | 1.47 ln ratio
ATTATGAT | 0.476 ln ratio
ATGAATAT | 0.706 ln ratio
TCTTTAAT | -0.358 ln ratio

Excerpt of the above (sample 2):
Oligonucleotide | E-score
CCGACCAA | -0.0391
GCCGATCC | 0.327
GAAAGAAA | -0.105
ACACCTTA | -0.127
